Measured values from different studies.
Lines come from different studies, so protocols differ.
EGFR L858R: Epidermal growth factor receptor (EGFR, Homo sapiens, UniProt P00533, L858R)
EGFR: Epidermal growth factor receptor (EGFR, Homo sapiens, UniProt P00533)

SMILES | target | test | conditions | scale | quantity | result
O=C(CN1CN(c2ccccc2)C2(CCN(C(=O)c3cnc4[nH]ncc4c3)CC2)C1=O)NCC(F)(F)F | Epidermal growth factor receptor (EGFR, Homo sapiens, UniProt P00533, T790M) | inhibitor | concentration not given |  | inhibition | < 50%
CC(C)[C@H]1NC(=O)C[C@H]2/C=C/CCSSC[C@@H](NC1=O)C(=O)N[C@H](Cc1cccc3ccccc13)C(=O)NCC(=O)O2 | Epidermal growth factor receptor (EGFR, Homo sapiens, UniProt P00533, del746-750/T790M) | enzyme activity, inhibitor | 10 µM |  | inhibition | -0.9%
Nc1ccc(/C=C/C(=O)N2CCc3c(oc4c(-c5ccc(F)cc5)cc(-c5ccc(C(=O)N6CCC(F)(F)CC6)cn5)cc34)C2)cn1 | EGFR L858R | binding, competition with immobilised ligand | 1 µM |  | remaining binding | 77%
CCOC(=O)[C@@H]1Cc2c(cc([N+](=O)[O-])cc2[N+](=O)[O-])[C@H](O)[C@]12C(=O)Nc1ccc(Br)cc12 | EGFR | KINOMEscan | 100 nM | baseline: DMSO control | remaining binding | 87%
C[C@H](NCc1ccc(-c2ccc(C(F)(F)F)cc2)cc1)C(N)=O | EGFR L858R | cell-free assay, competition with immobilised ligand | 1 µM |  | inhibition | 29%
CS(C)(=O)=Nc1ccc(-c2ccc(-c3nc4cc(O[C@@H]5CO[C@H]6[C@@H]5OC[C@H]6O)[nH]c4cc3F)cc2)cc1 | EGFR | enzyme activity, inhibitor | 10 µM |  | inhibition | -12%
N[C@H](C(=O)N1CCCC1)C1CCN(c2nccc3c(-c4ncc(Cl)cc4Cl)cccc23)CC1 | EGFR | kinase activity, inhibitor | 10 µM, together with: ATP 1 mM |  | inhibition | 2.9%
O=C1NC(=O)c2c1c1cc(F)c[n+]3c1c1c2c2cc(O)ccc2[n]1[Ru-4]312([N]=C=S)[S+]3CC[S+]1CC[S+]2CC3 (centres unmarked) | Epidermal growth factor receptor (EGFR, Homo sapiens, UniProt P00533, L861Q) | enzyme activity | 100 nM, human enzyme, together with: 10 µM ATP | baseline: untreated | remaining activity | 108%

Excerpt of the above:
SMILES | target | test | conditions | scale | quantity | result
Nc1ccc(/C=C/C(=O)N2CCc3c(oc4c(-c5ccc(F)cc5)cc(-c5ccc(C(=O)N6CCC(F)(F)CC6)cn5)cc34)C2)cn1 | EGFR L858R | binding, competition with immobilised ligand | 1 µM |  | remaining binding | 77%
